Measured values of several laboratories.
Every numbered part comes from another study and shows a few of its results, in no order.

Study 1
Target: PABPC1L2, full length, GST fusion (mouse, UniProt A0ABA7IW68)
Technique: RNAcompete
Form: RNA
Sample: in vitro
Tested at: 20 nM
Notes: 7-mer, probes averaged, single round
Baseline: mean of 7-mers
Direction: higher = stronger binding
Target sequence (chain): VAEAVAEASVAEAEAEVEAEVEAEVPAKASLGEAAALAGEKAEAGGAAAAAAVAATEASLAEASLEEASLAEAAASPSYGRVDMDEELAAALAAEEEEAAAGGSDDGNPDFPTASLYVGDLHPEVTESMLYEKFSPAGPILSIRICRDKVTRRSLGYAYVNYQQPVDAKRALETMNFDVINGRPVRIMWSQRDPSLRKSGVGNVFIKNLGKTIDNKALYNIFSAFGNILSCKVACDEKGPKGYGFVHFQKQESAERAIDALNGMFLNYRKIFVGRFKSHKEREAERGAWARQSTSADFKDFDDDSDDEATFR
With `GGACGAU` the 7-mer Z-score was 0.129.
`UCCUUCU` gave a 7-mer Z-score of -0.378.
For `CGAUUGG`, the 7-mer Z-score was -0.0699.

Study 2
Target: Interferon regulatory factor 5, full length, phosphomimetic (IRF5, Homo sapiens, UniProt Q13568-2, residues 1-514, K96S/S451D/S453D/S456D/S462D)
Technique: protein-binding microarray
Form: double-stranded DNA, one strand shown
Sample: in vitro
Tested at: 250 nM
Notes: 60-bp whole probe
Together with: salmon DNA 0.4 mg/ml
Baseline: random background probes
Direction: higher = stronger binding
Shared flanks, not repeated: GCCTAGCAC … GTCTTGATTCGCTTGACGCTGCTG
`GACGGACTGCTCTTCCTGACGTGCTAG` has a log fluorescence of -0.523 z-score.
With `TTAGAACTGGGGACTGAATTAGTGCTA` the log fluorescence was -0.101 z-score.
`CAGGGTTTCAGATGCGTGAGGTGCTAG` gave a log fluorescence of 0.162 z-score.
`TTAGCACTGGGTTTCGGTTAGTGCTAG` gave a log fluorescence of 8.28 z-score.
For `TTTTTTTTTTTTTTTTTGTAGTGCTAG`, the log fluorescence was 1.31 z-score.
For `GTCGGTCTCGGTTTCGGGACGTGCTAG`, the log fluorescence was 4.33 z-score.

Other studies, line by line
KAT6A both winged helices, GST fusion: Histone acetyltransferase KAT6A, both winged helices, GST fusion (KAT6A, Homo sapiens, UniProt Q92794, residues 1-181)
With `GACGGAAC` the E-score was 0.214 (KAT6A both winged helices, GST fusion; protein binding microarray; double-stranded DNA, one strand shown, in vitro; not given, 8-mer, flanks averaged, mean of 2 arrays, mostly near background; baseline: not given, higher = stronger binding).
`PhoQ, residues 284 288 289 292 302 303 SMYGEC` has a fold induction of 0.621 (PhoP, residues 12 14 15 18 19 NHFRA (Escherichia coli, UniProt P23836); Sort-seq, measured: YFP reporter; E. coli; PhoQ-PhoP variant library, together with: 10 µM Mg2+; baseline: high Mg2+ state, higher = stronger signaling).
The E-score of `AGAGGAGC` is reported as -0.0886 (KAT6A both winged helices, GST fusion; protein binding microarray; double-stranded DNA, one strand shown, in vitro; not given, 8-mer, flanks averaged, mean of 2 arrays, mostly near background; baseline: not given, higher = stronger binding).

Excerpt of the above (other studies, line by line):
The E-score of `AGAGGAGC` is reported as -0.0886 (KAT6A both winged helices, GST fusion; protein binding microarray; double-stranded DNA, one strand shown, in vitro; not given, 8-mer, flanks averaged, mean of 2 arrays, mostly near background; baseline: not given, higher = stronger binding).
